# Results from different studies.
# Every numbered part comes from another study and shows a few of its results, in no order. Substitutions count along the parent as printed.

# Set 1
# Target: ABI1, truncated, D143A, DHFR fusion (Arabidopsis thaliana)
# Method: DHFR PCA, deep sequencing
# Medium: yeast
# Setting: methotrexate growth selection, single substitutions
# Together with: (+)-ABA 17 µM
# Reference: wild-type fitted maximum
# Direction: higher = stronger binding
# Parent: PYL1, truncated, DHFR fusion (Arabidopsis thaliana); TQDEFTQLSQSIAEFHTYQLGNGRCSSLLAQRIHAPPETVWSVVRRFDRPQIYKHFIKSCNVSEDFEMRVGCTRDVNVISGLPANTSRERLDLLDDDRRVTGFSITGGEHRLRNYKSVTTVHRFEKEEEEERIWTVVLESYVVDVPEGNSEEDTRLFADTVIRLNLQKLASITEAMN
Variant,relative binding score
Y141N,-2.13%
G102A,68.2%
R123L,73.7%
S42L,51.3%
T106D,23%
C72A,92%
P83L,5.27%
T39K,82.5%
F124C,93.5%

# Set 2
# Target: Ras GTPase-activating protein-binding protein 1, RRM domain (G3BP1, Homo sapiens, UniProt Q13283)
# Chain of UniProt Q13283 (whole entry, looked up): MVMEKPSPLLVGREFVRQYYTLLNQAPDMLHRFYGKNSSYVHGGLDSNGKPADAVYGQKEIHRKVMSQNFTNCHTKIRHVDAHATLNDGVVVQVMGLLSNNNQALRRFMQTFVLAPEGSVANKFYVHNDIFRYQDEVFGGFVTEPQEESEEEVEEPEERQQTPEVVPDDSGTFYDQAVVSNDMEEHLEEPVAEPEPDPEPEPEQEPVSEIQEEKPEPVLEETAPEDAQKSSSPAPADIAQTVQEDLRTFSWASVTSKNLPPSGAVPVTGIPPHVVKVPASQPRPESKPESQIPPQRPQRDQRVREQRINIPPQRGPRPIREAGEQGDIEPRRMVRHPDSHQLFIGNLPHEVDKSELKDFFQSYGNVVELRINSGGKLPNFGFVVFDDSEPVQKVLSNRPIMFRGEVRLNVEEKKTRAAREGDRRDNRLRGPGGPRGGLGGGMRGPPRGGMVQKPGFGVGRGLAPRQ
# Method: RNA Bind-n-Seq
# Form: RNA
# Medium: in vitro
# Concentration: 1 µM
# Setting: whole 134-nt RNA, ends assumed
# Together with: 150 mM KCl
# Reference: input library
# Direction: higher = stronger binding
# Constant ends, left off below: GGGAGUUCUACAGUCCGACGAUC … UGGAAUUCUCGGGUGUCAAGG
Strand,log2 enrichment
CCAACUCCUAUAAUUCCCUAUCUUUUAGUUUUAGUUGCAGAAACAUUUUGUGGUCAUUAAGCAUUGGGUGGGUAAAUUCAACCACUGUAA,-0.0833
AAGUCCUGUGCUACACAUCGUAUGUACCGAAUCGGGUUUUUGGGUUUGGGUUUGGGAAAGUAUUAUGUUACGCCGUUCGGAUCUGCACUU,0.446
AAGUCCUGUGCUACACAUCGUAUGUACCGAAUCGGGUUUGGGAAAAAGGGAAAGGGAAAGUAUUAUGUUACGCCGUUCGGAUCUGCACUU,0.712
UCCUGUGCUACACAUCGUAUGUACCGAAUCGGGGCCCCCCGGCCCCCCGGGGCCCCCCGGAAAGUAUUAUGUUACGCCGUUCGGAUCUGC,-0.432
UCCUGUGCUACACAUCGUAUGUACCGAAUCGGGAAAAAAAGGGAAAGGGAAAAAAAGGGAAAGUAUUAUGUUACGCCGUUCGGAUCUGCA,0.132
UCAAGUCCUGUGCUACACAUCGUAUGUACCGAAUCGGGCCGGGGCCGGGGCCGGAAAGUAUUAUGUUACGCCGUUCGGAUCUGCACUUCC,-1.76
AGUCCUGUGCUACACAUCGUAUGUACCGAAUCGGAAAAAGGAAAAAGGGGAAAAAGGGAAAGUAUUAUGUUACGCCGUUCGGAUCUGCAC,0.0412
UCCUCAAGUCCUGUGCUACACAUCGUAUGUACCGAAUCGGGAGGAGGGAGGAAAGUAUUAUGUUACGCCGUUCGGAUCUGCACUUCCAGC,-0.194
GGGCCCUGGUGGCAUGCGGGGAGGAAGAGGUGGCCUCAUGGAUCGUGGUGGUCCCGGUGGAAUGUUCAGAGGUGGCCGUGGUGGAGACAG,0.822

# Set 3
# Target: CCNE1, cyclin fold, Cln2 fusion (human)
# Method: yeast growth competition, sequencing
# Medium: yeast
# Setting: weak parent motif
# Reference: not given
# Direction: higher = stronger binding
# Parent: BORA docking peptide (human); SSLRRKLFLDGNG
Variant,normalised enrichment score
SSLRRALFLDGNG [K6A],0.973
SSLRRKAFLDGNG [L7A],-0.174
SSLRRKLFLDANG [G11A],0.767
SSLRRKLFLDGAG [N12A],1.41
SSLRKKLLLDGNG [R5K F8L],0.254
SSARRKLFLDGNG [L3A],4.34
SSLRKKLFLDGNG [R5K],0.739
SSLRRKLFLAGNG [D10A],0.114

# Mixed results
Substance,target,test,system,conditions,how to read,endpoint,value
"PhoQ, residues 284 288 289 292 302 303 TYGVAM","PhoP, residues 12 14 15 18 19 IQSYL (Escherichia coli, UniProt P23836)","Sort-seq, item: YFP reporter",E. coli,"PhoQ-PhoP variant library, together with: 10 µM Mg2+","reference: high Mg2+ state, higher = stronger signaling",fold induction,14.6

# A few entries again (set 1):
Variant,relative binding score
G102A,68.2%
S42L,51.3%
C72A,92%
T39K,82.5%
